Experimental data pooled from the literature.
Compare with care: the assays were run in different laboratories. Values joined by “and” are separate records of one study, mostly repeats; a detail may differ. Numbers after ± are the reported error. Values after ≈ are worked out from the molar mass of the structure shown.
Sequence of UniProt P23458 (whole entry, looked up): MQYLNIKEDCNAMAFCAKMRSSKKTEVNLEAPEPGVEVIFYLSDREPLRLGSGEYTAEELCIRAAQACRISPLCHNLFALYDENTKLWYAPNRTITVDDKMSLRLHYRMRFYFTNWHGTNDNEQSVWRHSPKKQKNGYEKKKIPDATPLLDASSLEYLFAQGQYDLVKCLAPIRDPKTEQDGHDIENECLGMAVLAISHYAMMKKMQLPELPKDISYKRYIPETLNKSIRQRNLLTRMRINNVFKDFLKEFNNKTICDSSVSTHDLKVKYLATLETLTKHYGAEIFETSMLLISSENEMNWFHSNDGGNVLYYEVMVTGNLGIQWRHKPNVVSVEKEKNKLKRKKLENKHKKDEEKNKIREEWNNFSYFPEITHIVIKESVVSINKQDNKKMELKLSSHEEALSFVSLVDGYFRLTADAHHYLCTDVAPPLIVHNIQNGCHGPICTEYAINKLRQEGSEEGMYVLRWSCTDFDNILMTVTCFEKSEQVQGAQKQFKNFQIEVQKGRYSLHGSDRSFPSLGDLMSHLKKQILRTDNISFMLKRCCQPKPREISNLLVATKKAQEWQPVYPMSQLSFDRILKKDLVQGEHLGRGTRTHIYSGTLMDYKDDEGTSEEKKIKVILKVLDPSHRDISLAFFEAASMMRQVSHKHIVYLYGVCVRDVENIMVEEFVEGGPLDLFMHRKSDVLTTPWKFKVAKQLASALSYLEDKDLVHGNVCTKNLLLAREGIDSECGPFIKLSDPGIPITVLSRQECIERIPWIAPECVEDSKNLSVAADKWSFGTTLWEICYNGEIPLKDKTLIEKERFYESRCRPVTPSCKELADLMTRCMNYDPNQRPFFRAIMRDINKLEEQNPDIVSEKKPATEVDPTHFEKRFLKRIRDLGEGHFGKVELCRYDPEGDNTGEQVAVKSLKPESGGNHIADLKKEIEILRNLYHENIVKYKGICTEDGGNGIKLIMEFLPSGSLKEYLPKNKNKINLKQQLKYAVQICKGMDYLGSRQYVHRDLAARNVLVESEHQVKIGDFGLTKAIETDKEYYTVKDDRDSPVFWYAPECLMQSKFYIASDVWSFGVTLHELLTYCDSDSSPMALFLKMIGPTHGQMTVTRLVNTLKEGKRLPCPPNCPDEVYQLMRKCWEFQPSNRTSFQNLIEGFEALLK

CCN(CC)C(=O)[C@@H]1C=C2c3cccc4c3c(cn4C(=O)c3ccco3)C[C@H]2N(C)C1 — time to peak head-twitch response (magnetometer detection; mouse C57BL/6J male; intraperitoneal, dose not given, maximally active doses, 5 min blocks): 5 to 10 min
CCc1nc2cc(Br)ccn2c1C(=O)NCc1ccc2oc(-c3ccc(Cl)cc3)nc2c1 — MIC90 (Mycolicibacterium smegmatis): > 100 µM
C=C(NC(=O)c1csc(-c2nc3c(cc2O)-c2nc(cs2)C(=O)NC(C(C)O)C(=O)NC(=C(C)OC)c2nc(cs2)C(=O)NC2c4nc(cs4)C(=O)NC(COC(=O)c4c5c6c(cccc6n4O)COC(=O)C(OC4CC(C)(O)C(N(C)C)C(C)O4)C2OC5)c2nc-3cs2)n1)C(N)=O (stereo not drawn) — MIC50 (Streptococcus viridans; 10 clinical isolates): 0.0078 µg/mL (≈ 5.43 nM)
CC[C@H](C)[C@H](NC(=O)[C@H](CC(=O)O)NC(=O)[C@@H](NC(=O)[C@@H]1CCCN1C(=O)[C@@H](N)CCCNC(=N)N)[C@@H](C)O)C(=O)N[C@@H](CCCCN)C(=O)N[C@H]1CSSC[C@@H]2NC(=O)[C@H](CCCNC(=N)N)NC(=O)CNC(=O)[C@H](CC(N)=O)NC(=O)[C@H]([C@@H](C)O)NC(=O)[C@H](CCCCN)NC(=O)CNC(=O)[C@H](Cc3ccccc3)NC(=O)[C@H](CCCNC(=N)N)NC(=O)[C@H](CO)NC(=O)[C@H](CCCCNC(=O)OCc3cc(OC)c(OC)cc3[N+](=O)[O-])NC(=O)[C@@H]3CSSC[C@@H](C(=O)N[C@@H](Cc4ccccc4)C(=O)O)NC(=O)[C@H](CC(=O)O)NC(=O)[C@H](CSSC[C@H](NC(=O)[C@H](CCC(N)=O)NC(=O)[C@H](Cc4ccc(O)cc4)NC(=O)[C@H](CO)NC(=O)[C@H](CCC(=O)O)NC(=O)[C@H](CO)NC1=O)C(=O)N[C@@H](Cc1ccccc1)C(=O)N1CCC[C@H]1C(=O)N[C@@H](C(C)C)C(=O)N3)NC(=O)[C@H](Cc1ccccc1)NC(=O)CNC(=O)[C@H](CC(N)=O)NC(=O)[C@H](C(C)C)NC2=O — APD70 (human iPS-derived cardiomyocytes; 200 nM, no illumination, 1000 ms cycle): 257 ± 46.9 ms
CCc1nnc(-c2c(OC)cc(-c3cnc4cc(-c5cnn(C)c5)ccn34)cc2OC)o1 — osteoid volume/bone volume (histomorphometry; male C57BL/6J mouse, tibia; oral gavage, 40 mg/kg once daily, 3 wk): 0.381 ± 0.0784%
CN(C)[C@H]1C[C@@]23CC[C@@]4(O2)C(=CC[C@]2(C)[C@@H](c5ccc6ccncc6c5)CC[C@H]24)C=C3[C@@H](O)[C@@H]1O — inhibition (Tyrosine-protein kinase JAK1, JH1 kinase domain (JAK1, Homo sapiens, UniProt P23458); probe labelling, inhibitor, KiNativ ATP probe MS; native lysate; 1 µM): 7%
CCCCCC1=C(NCC)C(=O)C(C/C=C(\C)CCC=C(C)C)=C(O)C1=O — log2 fold change (RNA-Seq, item: Oasl2; lesioned mice, striatum; dose not given; baseline: untreated lesioned mice): 1.3
CN[C@@H]1[C@H](O)[C@H](NC)[C@H]2O[C@]3(O)[C@H](O[C@@H]2[C@H]1O)O[C@H](C)C[C@H]3NC(=O)Cc1cc(Cl)ccn1 — inhibition (GABA transporter; binding; 10 µM): 14%
CC(C)CC(C(=O)N1CC2(CC1C#N)C(=O)Nc1ccccc12)N(C)C(=O)c1cc2c(F)cc(F)c(F)c2[nH]1 (stereo not drawn) — inhibition (human coronavirus 229E; viral replication; 0.000137 µM): 19.9%
O=C1NC2(CC2)COc2ncc(F)cc2[C@H]2COCCN2c2ccn3ncc1c3n2 — organ-to-brain weight ratio (Sprague-Dawley rat, male, thymus; oral, 2.5 mg/kg/day, 4 weeks, end of treatment): 28.7 ± 8.92%
CNCCO.O=C(O)C(Cl)Cl — inhibition (Amaranthus retroflexus; herbicidal activity; 15 mg/mL, 21 days, post-emergence greenhouse): 0%
Cc1ccc(N2CC3CN(C)CC3C2)cc1C(=O)N[C@H](C)c1cc(-c2cnn(C)c2)nc2ccccc12 (stereo partly drawn) — viability (African green monkey cells; 3.906 µM): 80.1%
CC(C)C[C@@H]1NC(=O)[C@@H](Cc2c[nH]c3ccccc23)NC(=O)[C@H](CCCNC(=N)N)NC(=O)[C@@H](CCC(=O)O)NC(=O)[C@H](CCC(N)=O)NC(=O)[C@@H](CCC(=O)O)NC(=O)[C@H](CCCNC(=N)N)NC(=O)[C@@H](Cc2c[nH]c3ccccc23)NC1=O — cytokine level (Luminex, item: M-CSF; LDLr-/- mice, Western diet, liver; dose not given, 4 weeks): 200 ± 70 pg/g tissue
CCc1nn(C)c2nc(-c3ccc(C(=O)O)cc3)nc(NCc3ccccc3)c12 — parasite number (Cryptosporidium parvum; HCT-8; 6 x EC90, 0 h; baseline: DMSO control): 109% and 96.8% and 93.3% and 101%
CC(C)(C)C(=O)OCOP(=O)(OCOC(=O)C(C)(C)C)C1CCCN(O)C1=O (stereo not drawn) — CC50 (HCT-15): > 100 µM
O=C(O)c1ccc(-c2nc(-c3ccccc3Cl)c3sccn23)cc1 — platelet count change (C57BL/6 mice; dose not given, day 4, basal hematopoiesis): 106% and 93.9% and 90.7% and 132%
CC(C)[C@H]1NC(=O)C[C@H]2/C=C/CCSSC[C@@H](NC1=O)C(=O)N[C@H](Cc1cccc3ccccc13)C(=O)NCC(=O)O2 — inhibition (ERBB2 (Homo sapiens, UniProt P04626); enzyme activity, inhibitor; 10 µM): 1.6%
Cc1nc2cc(OC(F)(F)F)ccn2c1C(=O)NCc1ccc2oc(-c3ccc(OC(F)(F)F)cc3)nc2c1 — MIC90 (Mycolicibacterium smegmatis): > 100 µM
CC[C@H](C)[C@@H]1NC(=O)[C@H](Cc2c[nH]cn2)NC(=O)[C@H](CC(N)=O)NC(=O)[C@H](CO)NC(=O)[C@H](CCC(N)=O)NC(=O)[C@@H](NC(=O)CN)CSSC[C@@H]2NC(=O)CNC(=O)[C@H](C)NC(=O)[C@H](CC(C)C)NC(=O)[C@@H]3CSSC[C@@H](C(=O)NCC(=O)O)NC(=O)[C@H](Cc4ccccc4)NC(=O)CNC(=O)[C@H](CC(N)=O)NC(=O)[C@@H]4CCCN4C(=O)CNC(=O)[C@H](CSSC[C@H](NC(=O)[C@H](CCCNC(=N)N)NC(=O)[C@H](CC(N)=O)NC(=O)[C@H](Cc4c[nH]cn4)NC(=O)[C@H](CCCCN)NC(=O)[C@H](CC(C)C)NC1=O)C(=O)N[C@@H](CCCCN)C(=O)N[C@@H](CCC(N)=O)C(=O)N[C@@H](CC(=O)O)C(=O)N[C@@H](CO)C(=O)N[C@@H](CC(=O)O)C(=O)N3)NC(=O)[C@H](C(C)C)NC2=O — IC50 (HEK293-TB; Wnt1/sFRP-1 signalling): < 10 µM
CCc1nc2ccccn2c1C(=O)NCc1ccc2oc(-c3ccc(OC(F)(F)F)cc3)nc2c1 — MIC (Mycolicibacterium smegmatis; 72 h): > 100 µM
Cc1cc(C(=O)Nc2nc3cccc(C)c3n2[C@H]2CCCCN(C(=O)/C=C/CN(C)C)C2)ccn1 — survival (Trypanosoma brucei brucei; 2T1 CLK1 C215S overexpressing; 0.2778 µM, 72 h): 78.5% and 93.9% and 87.4% and 77.1% and 80.7% and 93.2%
CN1C(=O)C(C2C3=C(CC(C)(C)CC3=O)Oc3ccc([N+](=O)[O-])cc32)C(=O)N(C)C1=O (stereo not drawn) — lipid content reduction (3T3-L1 during adipogenesis; Oil Red O; IC20; baseline: untreated): ~80%
Cc1cc(Oc2nc(N3CC[C@@H](c4ccncc4)C3)ncc2F)[nH]n1 — normalised growth (Mycobacterium tuberculosis; OD; H37Rv PurF CRISPRi knockdown; 3.1e-05 µM, added: anhydrotetracycline low): 100% and 98%
COc1ccccc1-c1n[nH]c2nc(N[C@H]3CC[C@H](NS(=O)(=O)CC(C)C)CC3)ncc12 — relative abundance (bead binding, competition bead pull-down, item: LINJ.34.1770; Leishmania donovani extract; 10 µM; baseline: vehicle): 0.53
CCc1nc2ccc(Cl)cn2c1C(=O)NCc1ccc2oc(-c3ccc(OC(F)(F)F)cc3)nc2c1 — MIC (Mycolicibacterium smegmatis; 72 h): > 100 µM
COc1ccccc1-c1n[nH]c2nc(NC3CCN(C(=O)Cc4ccc(F)cc4F)CC3)ncc12 — relative abundance (bead binding, competition bead pull-down, item: LINJ.35.3750; Leishmania donovani extract; 10 µM; baseline: vehicle): 1.15
CCn1ccc(-c2cc([C@@H](C)NC(=O)c3cc(OC[C@@H]4CCN4C)ccc3C)c3ccccc3n2)n1 — viability (African green monkey cells; 7.812 µM): 94%
C#CCNC(=O)C1(O/N=C(\C(=O)N[C@@H]2C(=O)N(OS(=O)(=O)O)C2(C)C)c2csc(N)n2)CC1 — MIC (Serratia marcescens; agar dilution; ATCC 21074 susceptible): 2 µg/mL
CSc1cc(C)[nH]c(=O)c1CNC(=O)c1c(C)n([C@H](C)C2CCN(CC(F)(F)F)CC2)c2ccccc12 — GI50 (KARPAS-422; cell growth or viability; 8 days): 0.041 µM
CC(=O)NCCCC[C@@H]1NC(=O)[C@H](Cc2c[nH]c3c(C)cccc23)NC(=O)[C@H]([C@@H](C)O)NC(=O)[C@H](CC(N)=O)NC(=O)[C@@H](NC(C)=O)C(C)(C)SSC(C)(C)[C@@H](C(=O)N[C@@H](Cc2ccc(OCCN)cc2)C(=O)N[C@@H](Cc2ccc3ccccc3c2)C(=O)NC2(C(=O)N[C@@H](CCC(=O)O)C(=O)N[C@@H](CC(N)=O)C(=O)N[C@@H](Cc3cccnc3)C(=O)N(C)CC(N)=O)CCOCC2)NC1=O — protein binding (Albumin (ALB, Homo sapiens, UniProt P02768); equilibrium dialysis; purified human albumin; 1 µM): 35.9 ± 2.1 % bound
